# Experimental data gathered from unrelated publications.
# Every numbered part comes from another study and shows a few of its results, in no order.

# Sample 1 — method: RNA Bind-n-Seq; form: RNA; matrix: in vitro; concentration: not given; reference: input RNA pool; direction: higher = stronger binding
# Target: RING finger protein unkempt homolog, zinc fingers 1-6, GST-SBP tag (UNK, Homo sapiens, UniProt Q9C0B0, residues 30-357)
# Notes: RNA with constant flanks, human and mouse sites, ends assumed
# Shared flanks, not repeated: GGGAGUUCUACAGUCCGACGAUC … CAACAGAGGAUUGAGCAUCA
# Residues (chain): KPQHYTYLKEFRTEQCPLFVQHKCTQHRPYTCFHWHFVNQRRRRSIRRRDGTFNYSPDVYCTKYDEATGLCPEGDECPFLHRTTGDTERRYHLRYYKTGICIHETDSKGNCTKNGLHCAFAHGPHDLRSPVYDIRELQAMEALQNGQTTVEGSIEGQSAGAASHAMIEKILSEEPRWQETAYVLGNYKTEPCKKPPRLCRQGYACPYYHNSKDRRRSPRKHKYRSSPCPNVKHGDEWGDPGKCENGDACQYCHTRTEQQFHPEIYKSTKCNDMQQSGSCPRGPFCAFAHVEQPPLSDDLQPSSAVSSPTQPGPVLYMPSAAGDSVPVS
Sequence,bound/input enrichment [ratio]
ACAGCUAUGUACAGCAUACGAAUCAUUUACUUCGUAACAAUAACAAAACCGCGUUUUCCCCCCCUAAUCUCCAUUAACGAAAAUGACCCAGACCUCAUAAACCCAAUCAAACGCCUAGCA,1.77
CCUAACACCGAUGACCUGUUCAAAGCUGUUGGUGAUGGAAUUGUGCUUUGUAAAAUGAUUAACCUUUCAGUUCCUGAUACCAUUGAUGAAAGAGCAAUCAACAAGAAGAAACUUACACCC,0.113
UUUAGCUUCCUGGAGAGCCACAACAAGCUGGACAAAGACAACCUCUCCUACAUUGAGCACAUCUUUGAGAUAUCUCGCCGUCCUGACCUCCUCACUAUGGUGGUUGACUACAGAACCCGU,0.137
CAGUGGGAUGGGGAGCAAAGUCCCAGAGGGGAGCGCAACAGGUGGAAGUAUGAGGAGUUUUUAGAUCAUCCAGGCCAUAUCCACAGUAGUCCUUGCCACGAAAGGCCCAACAAUGUCUCU,0.121
UCCCUCGCCUGUGGUAAACCAACACAGCGGGUCCUCACAAAAGAACCCAAGUCCAAGGAGAUAGAAAGUGGCCACAUAUUUACAGUUAAUGAUCAAUUCACAUCUAAACUACACAGAGUC,0.533
CAACAUUCUUCAGAUUGUGGAUGUGUGUCAUGACGUAGAAAAGGAUGAAAAACUUAUUCGUCUAAUGGAAGAGAUCAUGAGUGAGAAGGAGAAUAAAACCAUUGUUUUUGUGGAAACCAA,0.234
UUAUUUAAACGCUGAAGCUUUUUGUUGUUGAUGAAAGAGUUCUUUGCACAAUUGUCCCAUUGUUUGACACCCAGUGUACUUGUCAUUUGCAUAAGACAGCAUUCUGACCACACUUGUAUG,0.175
AAAGAUAAAUUUGCAAGGGCCAAAGAGUUUGGAGCCACUGAAUGUAUUAACCCUCAGGAUUUUAGUAAACCCAUCCAGGAAGUGCUCAUUGAGAUGACCGAUGGAGGAGUGGACUAUUCC,0.103
CUGGGGGCCGGCGCCGUGGCCUACGGUGUGCGCGAAUCUGUGUUCACCGUGGAAGGCGGGCACAGAGCCAUCUUCUUCAAUCGGAUCGGUGGAGUGCAGCAGGACACUAUCCUGGCCGAG,0.0854
AUUGACUUAAUGAUAAAAGAAUAUCCAGCUAAACACGCUGAAUAUUCGGUUAUCCUACAAGAAAAGGAACGUCAGAGAAUUACAGAUCAUUAUAAAGAGUAUUCUCAAAUGCAACAACAG,0.109
AAUGAUAUCAAACCAGCCUUUGGCACAAACCAAGAAGAUUAUGCAAGUUACAUUAUGAACGGUAUCAUCAAAUGGGGUGACCCAGUUACUCGAGUUCUAGAUGAUGGGGAGCUGCUGGUG,0.22

# Sample 2 — method: RNA Bind-n-Seq; form: RNA; matrix: in vitro; concentration: 365 nM; reference: no-protein control; direction: higher = stronger binding
# Target: RNA binding protein fox-1 homolog 2, RRM domain, GST-SBP tag (RBFOX2, Homo sapiens, UniProt O43251-10, residues 100-194)
# Notes: natural RNA segment, single round, ends assumed
# Shared flanks, not repeated: GGGAGUUCUACAGUCCGACGAUC … UGGAAUUCUCGGGUGCCAA
# Target sequence (chain): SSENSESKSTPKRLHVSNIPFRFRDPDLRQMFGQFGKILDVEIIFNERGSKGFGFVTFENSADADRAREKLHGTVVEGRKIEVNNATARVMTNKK
Sequence,RBNS enrichment (R)
CUCUGUUUUUACCCAUGGCAGACAUUGCUAAUCAAUGGCAGCUCUAUUUCACUGAGUCUGGAUAAGGUUUCAGAGUUCAAAUGCUUGACGUUGGCACUUAACAUGAAAGC,0.404
UGGGAGUCCCGGGACAGAGUGCCCACUCCCCUCUACUUGCUGCUCUGGGCCUCCCCACCUUUCCUGGGGUCUCCACAUUCCCACUAGUGGGUCUUAUGUGUGUCUGUGUC,0.517
UACUGAUCAUUGAUAGUAUUACAAAUAAAUGUCUCUUCCUUUCUCUUCCUCCCUUCCUCCCCCUGCCUUCCUCUUAACCUAUGUGCUCAUCCUUGCUACUUGAGGCUGUU,1.41
AGGCCUCACCCCAGGGACAGGGCCCUGGAGCUCAGGGUCCUUGUUUCUGCCCUGCCAGCUGCAGCCUGGUUGGCAGCAUCUGCUCCAUCGGGGCAGGGGGUAUGCAGAGC,0.274
GUCAGUGGCUCAGAGAUAGGGCUGGGCAGACAUCUACCUUAGGUAAAGUGGCUCCAGGGACUUAAGUGAAGUUCACUACUCUUAUCAGCAGUGCUGGAGAGCGGAGGAUU,0.45
CAGUGGUUCACCUUCCUGGGCUGUCCCCAGUGGUCACGUCCUGCCUGGCUUCCUACUUGGGUAUAGCAUGUCCAAACUGGGCUCUGAACACUACAGCCUGCCUUGGAGCU,2.57
UGUGUGAACCCCACUCCUAUCCUUUGGCCUUAGUUUUCCCAUCUGUAAAACUCAGAAACGCAGUUGGAAAGUCCUUAUUCAUUUAGUAAGCGAAUAUAUUAUAAUAUGUA,0.499
AACUUGGAUCUCAGGUACCUCAAUUUUUCCCCCAAUUUCUGGCUACUACUAAAAGCCAGAAAGAACAGAACAGUGGCCUCAGGAGAUCUGAGUUUGAAUCCUUGCUCUCU,0.249
GUUCCAUUCUUGGCAUCUACUCUGGACCAAGGAGCAUCCCUAAUUCUUCAUAGGGACCUUUAAAAAGCAGGAAAUACCAACUGAAGUCAAUUUGGGGGACAUGCUAAAUA,0.337
CAGCACAUUGCUAUUAAUAGUAUGGAAAUAAUGGUCCCUCUGUUUCAUUGAAUUGCUGAAGUAAUGAUAAUGCCAUGAACCAGGAGAAGAUGGUUGUGGGGGUUUCUAGG,0.467
GAAUUAAAAAAAAAAAGCUUUGCCAAUAGCUAAAAAGUACAAGCUAUUAAAAAUCAGAUUGAAAAGUUUUGAGAAAAUGUUAUUUUUACUGAAAGCAAGCAGUGGCCUAU,0.706
CUAGCUAGCCUGGCUCAGUGAGCUGAUUAGCGUAUGGCAGGGGGCCUAGGAAGUACAGAGCAUCCUGCCUGUGCCUUGGAGCCUGUGCACUGCUUUUGUAUGUGAUCUUG,0.788

# Sample 3 — method: protein-binding microarray; form: double-stranded DNA, one strand shown; matrix: in vitro; concentration: 940 nM top; notes: 60-bp whole probe; with: salmon DNA 0.4 mg/ml; reference: random background probes; direction: higher = stronger binding; shared flanks, not repeated: GCCTAGCAC … GTCTTGATTCGCTTGACGCTGCTG
# Target: Interferon regulatory factor 5, full length, phosphomimetic (IRF5, Homo sapiens, UniProt Q13568-2, residues 1-514, S451D/S453D/S456D/S462D)
Sequence,fitted relative affinity [z-score]
GACGATTTCGGGTTTCGAGACGTGCTA,2.25
GACGGTCTCGGTCTCCGGACGTGCTAG,4.19
GACAATCTCAGTATCGAGACGTGCTAG,2.16
TACGGTATCCTTCTCCTGACGTGCTAG,0.718
GAGGGTATCGGGACTGGGGACGTGCTA,2.14
GACGGTTCCCTTCTCCTGACGTGCTAG,0.466
GACGATCTCAGTTTCGAGTCGTGCTAG,6.7
TTAGATTTCAGTCACGATTAGTGCTAG,0.926
GACGCTTTCAGTTTCGAGACGTGCTAG,5.41
GACGGACTGGGCTTTCGGGACGTGCTA,-0.407
TTAGATATAAGTCTCGATTAGTGCTAG,1.83
TTAGGACTGGGTAGCGGTTAGTGCTAG,-0.32
TCAGTTTCTATTTTCTGACTGTGCTAG,6.34
GACGGTATCCTTTTTCTGACGTGCTAG,0.732
TTGCTGAAATAATACTGTTAGTGCTAG,0.0786
TTAGGTATCGGTATCGTTTAGTGCTAG,10.1
TTAGGTAACGGGTTTCGGTTAGTGCTA,5.45
GTCGGACTGGACTTTCGGGACGTGCTA,0.782
TCAGCTGTGGGTTTGAGACTGTGCTAG,-0.77
TTAGGACTGGACACTGGATTAGTGCTA,-0.469
TCAGGTATCGGTTTCGGTTAGTGCTAG,12
GACGACATCAGTTTCGAGACGTGCTAG,3.98
ATAACTTTTTTTTTTCCCTGGTGCTAG,0.93

# Sample 4 — method: protein binding microarray; form: double-stranded DNA, one strand shown; matrix: in vitro; concentration: not given; reference: not given; direction: higher = stronger binding
# Target: Histone acetyltransferase KAT6A, both winged helices, GST fusion (KAT6A, Homo sapiens, UniProt Q92794, residues 1-181)
# Notes: 8-mer, flanks averaged, mean of 2 arrays, mostly near background
# Target sequence (chain): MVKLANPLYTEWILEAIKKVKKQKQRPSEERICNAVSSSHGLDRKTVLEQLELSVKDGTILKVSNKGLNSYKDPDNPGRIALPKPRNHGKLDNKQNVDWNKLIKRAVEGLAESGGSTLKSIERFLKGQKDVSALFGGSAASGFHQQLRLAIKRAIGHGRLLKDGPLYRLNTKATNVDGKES
Sequence,E-score
AGACTCAA,0.003
ACCTGCAG,-0.145
AACTGGCC,-0.077
CGGGCACG,0.204
ACCGCCTA,0.156
GTGCTCGA,-0.0288
CTCCCTAA,-0.0809
AATATCAC,-0.016
CGCAGGAC,0.104
CATTCTAA,-0.157
AGACACCG,-0.0475
AAACTATT,-0.0549
GCTATTGA,0.00639
AATCGCCA,0.0312
ATATATAT,0.0876
TAAAAAGA,-0.142
ACATTCTC,-0.04
GCAGGAGC,0.0565
ATTAGCGC,0.326
AAGTTCGG,-0.162

# A few entries again (sample 4):
Sequence,E-score
AACTGGCC,-0.077
CGGGCACG,0.204
ACCGCCTA,0.156
GTGCTCGA,-0.0288
CTCCCTAA,-0.0809
AATATCAC,-0.016
CGCAGGAC,0.104
CATTCTAA,-0.157
AGACACCG,-0.0475
